{"data": "Experimental data from different studies", "note": "Each line is one published result; not all experiments were run side by side."}
{"SMILES": "COC1C=COC2(C)Oc3c(C)c(O)c4c(c3C2=O)C2=NC3(CCN(CC(C)C)CC3)NC2=C(NC(=O)C(C)=CC=CC(C)C(O)C(C)C(O)C(C)C(OC(=O)c2cncnc2)C1C)C4=O (stereo not drawn)", "test system": "female CD-1 mouse, plasma", "setting": "oral, 10 mg/kg", "bioavailability [%]": 80}
{"SMILES": "CCn1cc(-c2cc(Cn3ccnc3)cc3c2CCN([C@H](c2cc(OC)ccn2)C2CC2)C3=O)c(C(F)(F)F)n1", "test system": "male CD-1 mouse, plasma", "setting": "oral, 50 mg/kg", "bioavailability [%]": 47}
{"SMILES": "COC1C=COC2(C)Oc3c(C)c(O)c4c(c3C2=O)C2=NC3(CCN(CC(C)C)CC3)NC2=C(NC(=O)C(C)=CC=CC(C)C(O)C(C)C(O)C(C)C(OC(=O)c2cccnc2)C1C)C4=O (stereo not drawn)", "test system": "female CD-1 mouse, plasma", "setting": "oral, 10 mg/kg", "bioavailability [%]": 79}
{"SMILES": "Cc1ncsc1-c1ccc(CNC(=O)[C@@H]2C[C@@H](O)CN2C(=O)[C@@H](NC(=O)COCC(C)(COCCOCCOCCNC(=O)C[C@@H]2N=C(c3ccc(Cl)cc3)c3c(sc(C)c3C)-n3c(C)nnc32)COCCOCCOCCNC(=O)C[C@@H]2N=C(c3ccc(Cl)cc3)c3c(sc(C)c3C)-n3c(C)nnc32)C(C)(C)C)cc1", "test system": "male C57BL/6 mouse, plasma", "setting": "subcutaneous, 5 mg/kg, single dose", "bioavailability [%]": 88.4}
{"SMILES": "Cn1ccc(-c2cc(Cl)c(Cl)c3[nH]c4c(c23)CN(C(=O)CO)CC4)n1", "test system": "C57BL/6 mouse, blood", "setting": "oral, 20 mg/kg", "bioavailability [%]": 325}
{"SMILES": "CCC1C(COc2nccc3cc(C(N)=O)c(OC)cc23)NC(=O)C1F (stereo not drawn)", "test system": "CD-1 mouse, plasma", "setting": "oral, 10 mg/kg", "bioavailability [%]": 3.6}
{"SMILES": "Cc1cc(C(=O)N[C@@H](CC(=O)NC(C)(C)C)C(=O)NCCNC(=O)c2cc(-c3ccccc3)ccn2)no1", "test system": "mouse, plasma", "setting": "oral", "bioavailability [%]": 0}
{"SMILES": "O=S(=O)(Nc1ccc(OC(F)(F)F)cc1)N1CCCC(C2c3ccc(F)cc3CCc3cc(F)ccc32)C1 (stereo not drawn)", "test system": "mouse, plasma", "setting": "oral, 30 mg/kg", "bioavailability [%]": 17}
{"SMILES": "CCC1(CC)CC(=O)N(C2c3cc(C(=O)NC4c5ccccc5CC4O)ccc3OC2(C)COC)C(=N)N1 (stereo not drawn)", "test system": "male C57BL/6 mouse, plasma", "setting": "oral", "bioavailability [%]": 14}
{"SMILES": "OCC1OC(n2cnc3c(NCc4ccc(Br)s4)ncnc32)C(O)C1O (stereo not drawn)", "test system": "male CD-1 mouse, blood", "setting": "oral, 10 mg/kg", "bioavailability [%]": "25 to 48"}
{"SMILES": "O=S(=O)(N[C@H]1CCO[C@@H](C2c3ccc(F)cc3CCc3cc(F)ccc32)C1)c1ccc(OC(F)(F)F)cc1", "test system": "mouse, plasma", "setting": "oral, 30 mg/kg", "bioavailability [%]": 41}
{"SMILES": "COC1C=COC2(C)Oc3c(C)c(O)c4c(c3C2=O)C2=NC3(CCN(CC(C)C)CC3)NC2=C(NC(=O)C(C)=CC=CC(C)C(O)C(C)C(O)C(C)C(OC(=O)Nc2cscn2)C1C)C4=O (stereo not drawn)", "test system": "female CD-1 mouse, plasma", "setting": "oral, 10 mg/kg", "bioavailability [%]": 53}
{"SMILES": "O=C(Nc1ccc(C(F)F)cc1)[C@H](CC1CCCCC1)Nc1nn2c(=O)ccnc2s1", "test system": "female nude mouse, plasma", "setting": "oral, 10 mg/kg", "bioavailability [%]": 20}
{"SMILES": "COc1cnc2cccc(N3CCc4c(cc(Cn5ccnc5)cc4-c4cn(C)nc4C(F)(F)F)C3=O)c2c1", "test system": "male CD-1 mouse, plasma", "setting": "oral, 50 mg/kg", "bioavailability [%]": 150}
{"SMILES": "Cn1c2cc([S+](C)[O-])sc2c2cnn(Cc3cccc(N)c3)c(=O)c21 (stereo not drawn)", "test system": "male BALB/c mouse, plasma", "setting": "intraperitoneal, 50 mg/kg, single dose", "bioavailability [%]": "> 100"}
{"note": "For quick reference, copied from above:"}
{"SMILES": "COC1C=COC2(C)Oc3c(C)c(O)c4c(c3C2=O)C2=NC3(CCN(CC(C)C)CC3)NC2=C(NC(=O)C(C)=CC=CC(C)C(O)C(C)C(O)C(C)C(OC(=O)c2cccnc2)C1C)C4=O (stereo not drawn)", "test system": "female CD-1 mouse, plasma", "setting": "oral, 10 mg/kg", "bioavailability [%]": 79}
